Experimental data collected from several papers.
Compare with care: the assays were run in different laboratories. Several values in a cell are separate wells, animals, samples, runs or records. ≈ marks a conversion by molar mass, not a printed value.
Organism: Staphylococcus aureus

| Compound | test | test system | conditions | scale | endpoint | result |
| --- | --- | --- | --- | --- | --- | --- |
| CN[C@H](CC(C)C)C(=O)N[C@H]1C(=O)N[C@@H](CC(N)=O)C(=O)N[C@H]2C(=O)N[C@H]3C(=O)N[C@H](C(=O)N[C@H](C(=O)O)c4cc(O)cc(O)c4-c4cc3ccc4O)[C@H](O)c3ccc(c(Cl)c3)Oc3cc2cc(c3O[C@@H]2O[C@H](CO)[C@@H](O)[C@H](O)[C@H]2O[C@H]2C[C@](C)(N)[C@H](O)[C@H](C)O2)Oc2ccc(cc2Cl)[C@H]1O |  | CAAS-2019-CAAS-2019-09 clinical blaZ-resistant isolate, 25% plasma |  |  | MBC | 8 mg/L (≈ 5.52 µM) |
| CC[C@H](C)[C@H](NC(=O)[C@H](CCCCN)NC(=O)[C@H](CCCCN)NC(=O)[C@H](Cc1ccccc1)NC(=O)[C@@H](NC(=O)[C@@H](NC(=O)[C@H](CCCNC(=N)N)NC(=O)[C@H](Cc1ccccc1)NC(=O)[C@@H](NC(=O)[C@H](CCCCN)NC(=O)[C@H](CCCCN)NC(=O)[C@@H](N)CCSC)[C@@H](C)CC)C(C)C)[C@@H](C)CC)C(=O)N[C@@H](CC(C)C)C(=O)N[C@@H](CCCCN)C(=O)N[C@@H](CCCNC(=N)N)C(=O)N[C@@H](CC(C)C)C(=O)N[C@H](C(=O)N[C@H](C(=O)O)C(C)C)[C@@H](C)CC | broth microdilution | MRSA GU-1 | compound pretreated with pepsin 1 h, added: pepsin 1 mg/mL |  | MIC | 16 mg/L (≈ 7.04 µM) |
| C=CC[C@@H]1c2ccc(OC)c(OC)c2CN2CCc3cc4c(cc3[C@H]12)OCO4 |  | P2rx7 A312V/A312V mice, skin wound infection | dose not given, day 7 | relative to: day 0 | relative wound size | 1.23 and 0.87 and 0.75 and 1.02 and 0.6 and 0.69 |
| CC[C@H](C)[C@H](NC(=O)[C@H](C)NC(=O)[C@H](CCCCN)NC(=O)[C@H](CC(C)C)NC(=O)[C@H](C)NC(=O)[C@@H](NC(=O)[C@H](Cc1c[nH]cn1)NC(=O)[C@H](CC(C)C)NC(=O)[C@@H](NC(=O)[C@@H](NC(=O)[C@H](CCCCN)NC(=O)[C@H](C)NC(=O)[C@H](C)NC(=O)[C@H](CO)NC(=O)[C@H](CCCCN)NC(=O)[C@H](Cc1ccccc1)NC(=O)[C@@H](NC(=O)[C@H](CCCCN)NC(=O)[C@H](CC(C)C)NC(=O)[C@H](Cc1ccccc1)NC(=O)[C@H](CO)NC(=O)[C@H](CCCCN)NC(=O)[C@H](Cc1c[nH]c2ccccc12)NC(=O)[C@H](CCCCN)NC(C)=O)[C@@H](C)O)[C@@H](C)O)C(C)C)[C@@H](C)O)C(=O)N[C@@H](CO)C(=O)N[C@@H](CO)C(N)=O |  | MRSA | 130 strains |  | MIC50 | 4 mg/L (≈ 1.36 µM) |
| CN[C@H](CC(C)C)C(=O)N[C@H]1C(=O)N[C@@H](CC(N)=O)C(=O)N[C@H]2C(=O)N[C@H]3C(=O)N[C@H](C(=O)N[C@H](C(=O)O)c4cc(O)cc(O)c4-c4cc3ccc4O)[C@H](O)c3ccc(c(Cl)c3)Oc3cc2cc(c3O[C@@H]2O[C@H](CO)[C@@H](O)[C@H](O)[C@H]2O[C@H]2C[C@](C)(N)[C@H](O)[C@H](C)O2)Oc2ccc(cc2Cl)[C@H]1O |  | MRSA strain 6 |  |  | MIC | 1 mg/L (≈ 0.69 µM) |
| OB(O)c1csc2ccccc12 | OD600 | USA300 fphE::Tn transposon mutant | 50 µM | relative to: wild type | growth | 63.6% and 65.3% and 54.5% and 61.5% and 57.4% and 48.4% |
| Cc1c2c(nn1C)CSCc1cc(n(C)n1)CSc1cc(c3ccccc3c1)OCCCc1c(C(=O)O)n(C)c3c-2c(Cl)ccc13 | label-free proteomics, measured: rpmC | SA113 | concentration not given | relative to: untreated | log2 fold change | 3.84 |
| CO/N=C(\C(=O)N[C@@H]1C(=O)N2C(C(=O)O)=C(CSC(=O)c3ccco3)CS[C@H]12)c1csc(N)n1 |  | CAAS-2019-CAAS-2019-10 clinical blaZ-resistant isolate, 25% plasma |  |  | MBC | 32 mg/L |

Repeated from above:
| Compound | test | test system | conditions | scale | endpoint | result |
| --- | --- | --- | --- | --- | --- | --- |
| CN[C@H](CC(C)C)C(=O)N[C@H]1C(=O)N[C@@H](CC(N)=O)C(=O)N[C@H]2C(=O)N[C@H]3C(=O)N[C@H](C(=O)N[C@H](C(=O)O)c4cc(O)cc(O)c4-c4cc3ccc4O)[C@H](O)c3ccc(c(Cl)c3)Oc3cc2cc(c3O[C@@H]2O[C@H](CO)[C@@H](O)[C@H](O)[C@H]2O[C@H]2C[C@](C)(N)[C@H](O)[C@H](C)O2)Oc2ccc(cc2Cl)[C@H]1O |  | CAAS-2019-CAAS-2019-09 clinical blaZ-resistant isolate, 25% plasma |  |  | MBC | 8 mg/L (≈ 5.52 µM) |
